Assay results pooled from the literature.
A part holds a random share of what one study measured.
Chain of UniProt P31645 (whole entry, looked up): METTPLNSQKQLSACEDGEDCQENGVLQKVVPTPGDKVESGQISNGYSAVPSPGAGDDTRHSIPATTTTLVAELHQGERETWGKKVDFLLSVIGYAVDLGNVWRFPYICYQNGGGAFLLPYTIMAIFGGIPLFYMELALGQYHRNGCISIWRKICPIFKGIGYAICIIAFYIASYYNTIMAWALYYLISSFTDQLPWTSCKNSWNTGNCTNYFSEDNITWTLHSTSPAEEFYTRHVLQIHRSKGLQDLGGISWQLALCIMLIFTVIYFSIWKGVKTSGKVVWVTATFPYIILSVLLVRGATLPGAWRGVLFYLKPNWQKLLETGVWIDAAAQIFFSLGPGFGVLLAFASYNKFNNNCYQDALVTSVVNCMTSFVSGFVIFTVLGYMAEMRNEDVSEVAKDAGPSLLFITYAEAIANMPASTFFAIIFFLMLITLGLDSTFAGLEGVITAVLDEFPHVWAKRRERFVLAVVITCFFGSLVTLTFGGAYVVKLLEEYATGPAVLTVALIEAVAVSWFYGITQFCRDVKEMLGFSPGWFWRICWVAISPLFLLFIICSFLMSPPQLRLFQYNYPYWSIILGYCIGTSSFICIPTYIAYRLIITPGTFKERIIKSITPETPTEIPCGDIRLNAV

Block 1 — cell line: A-375; concentration: 100 µM; time: 36 h
Compound | viability [%]
O=C(COc1ccc(Cl)cc1)N1CCN(Cc2ccc3c(c2)OCO3)CC1 | 87.4
CN1C2=CC(=O)/C(=N\NC(N)=O)C=C2CC1S(=O)(=O)O (stereo not shown) | 111
O=C(O)CCCCCCCC(=O)O | 104
Clc1ccc(C(Cn2ccnc2)OCc2ccc(Sc3ccccc3)cc2)c(Cl)c1 (stereo not shown) | 3.46
O=C(O)C1=C(CSc2nnnn2CS(=O)(=O)O)CS[C@@H]2[C@H](NC(=O)[C@H](O)c3ccccc3)C(=O)N12 | 106
Nc1cc(N2CCCCC2)nc(N)[n+]1[O-] | 112
CCN1CCN(Cc2ccc(Nc3ncc(F)c(-c4cc(F)c5nc(C)n(C(C)C)c5c4)n3)nc2)CC1 | 104
N#C[C@@H]1C[C@@H]2C[C@@H]2N1C(=O)[C@@H](N)C12CC3CC(CC(O)(C3)C1)C2 | 109

Block 2 — effect on: enzyme activity; mode: inhibitor; concentration: 10 µM
Target: Calcium/calmodulin-dependent protein kinase type II subunit alpha (CAMK2A, Homo sapiens, UniProt Q9UQM7)
Chain of UniProt Q9UQM7 (whole entry, looked up): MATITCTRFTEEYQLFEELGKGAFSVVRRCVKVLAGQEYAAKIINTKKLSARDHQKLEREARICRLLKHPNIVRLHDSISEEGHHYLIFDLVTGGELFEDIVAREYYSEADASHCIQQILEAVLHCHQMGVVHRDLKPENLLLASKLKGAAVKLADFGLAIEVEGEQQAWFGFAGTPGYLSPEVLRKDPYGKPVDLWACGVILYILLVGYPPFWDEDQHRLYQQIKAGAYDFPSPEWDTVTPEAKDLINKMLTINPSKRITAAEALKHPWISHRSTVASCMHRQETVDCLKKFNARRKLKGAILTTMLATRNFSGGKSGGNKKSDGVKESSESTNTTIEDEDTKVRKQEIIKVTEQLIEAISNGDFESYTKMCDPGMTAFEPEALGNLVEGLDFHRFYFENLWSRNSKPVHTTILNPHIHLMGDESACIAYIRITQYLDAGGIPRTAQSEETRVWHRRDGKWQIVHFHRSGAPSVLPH
Structure (SMILES) | inhibition
CSCC[C@H](NC(C)=O)C(=O)O | -11%
C[C@@H](CO[C@@H]1O[C@H](CO)[C@@H](O)[C@H](O)[C@H]1O)[C@@H]1CC[C@@]2(CC[C@]3(C)[C@H](CC[C@@H]4[C@@]5(C)CC[C@H](O[C@@H]6O[C@H](CO)[C@@H](O)[C@H](O)[C@H]6O[C@@H]6O[C@H](CO)[C@@H](O)[C@H](O)[C@H]6O)[C@@](C)(CO[C@@H]6O[C@H](CO)[C@@H](O)[C@H](O)[C@H]6O)[C@@H]5CC[C@]43C)[C@H]2O)CO1 | -4%
C/C=C(/C)C(=O)O[C@H]1[C@H](O)[C@]2(COC(C)=O)[C@H](O)C[C@]3(C)C(=CC[C@@H]4[C@@]5(C)CC[C@H](O[C@@H]6O[C@H](C(=O)O)[C@@H](O[C@@H]7O[C@H](CO)[C@@H](O)[C@H](O)[C@H]7O)[C@H](O)[C@H]6O[C@@H]6O[C@H](CO)[C@@H](O)[C@H](O)[C@H]6O)[C@](C)(CO)[C@@H]5CC[C@]43C)[C@@H]2CC1(C)C | 16%
NCCCC(=O)O | 19%
O=C(O)/C=C/c1cccc(O)c1 | 3%
COc1cc(O)ccc1CCC(=O)c1ccc(O)cc1 | -1%
O=c1cc(-c2ccc(O)cc2)oc2cc(O)ccc12 | 38%
C=C(C(=O)O)[C@@H]1CC[C@H](C)[C@@H]2CC(=O)C(C)=C2C1 | 8%

Block 3 — Structure (SMILES): C=CCc1ccc(O)c(-c2cc(CC=C)ccc2O)c1; effect on: chloride current; method: whole-cell voltage clamp
ANO1 del476-501/M544A: Anoctamin-1 (ANO1, Homo sapiens, UniProt Q5XXA6, del476-501/M544A)
Chain of UniProt Q5XXA6 (whole entry, unmodified, looked up): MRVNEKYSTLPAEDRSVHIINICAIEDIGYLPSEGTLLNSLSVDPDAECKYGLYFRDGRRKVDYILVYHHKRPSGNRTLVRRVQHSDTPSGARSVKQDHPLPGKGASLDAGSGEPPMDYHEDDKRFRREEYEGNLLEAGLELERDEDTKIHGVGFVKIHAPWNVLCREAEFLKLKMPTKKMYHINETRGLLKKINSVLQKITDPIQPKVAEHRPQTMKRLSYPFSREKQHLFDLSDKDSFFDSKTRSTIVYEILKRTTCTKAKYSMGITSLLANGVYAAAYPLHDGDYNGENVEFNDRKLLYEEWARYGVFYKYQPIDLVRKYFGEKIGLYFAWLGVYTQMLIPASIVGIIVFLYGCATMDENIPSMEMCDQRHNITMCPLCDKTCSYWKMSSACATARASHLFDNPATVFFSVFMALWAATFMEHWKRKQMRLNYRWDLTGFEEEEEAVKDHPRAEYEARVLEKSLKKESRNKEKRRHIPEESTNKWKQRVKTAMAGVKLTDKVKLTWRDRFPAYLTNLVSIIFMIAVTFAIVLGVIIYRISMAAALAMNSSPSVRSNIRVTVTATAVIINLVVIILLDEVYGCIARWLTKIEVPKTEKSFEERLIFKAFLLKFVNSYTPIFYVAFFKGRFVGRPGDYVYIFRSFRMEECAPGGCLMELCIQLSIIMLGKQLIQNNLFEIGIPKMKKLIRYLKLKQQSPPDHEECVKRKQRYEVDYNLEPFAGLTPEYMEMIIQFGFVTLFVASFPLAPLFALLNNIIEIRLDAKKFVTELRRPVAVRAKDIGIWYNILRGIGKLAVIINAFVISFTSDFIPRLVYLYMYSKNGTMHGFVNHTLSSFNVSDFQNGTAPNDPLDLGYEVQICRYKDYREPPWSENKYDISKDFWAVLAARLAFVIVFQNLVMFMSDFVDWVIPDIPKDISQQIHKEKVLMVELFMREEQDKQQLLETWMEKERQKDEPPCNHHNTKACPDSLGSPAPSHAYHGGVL
target | assay | setting | IC50
Anoctamin-1 (ANO1, Homo sapiens, UniProt Q5XXA6, del476-501/F627A) | – | membrane voltage -80 mV | 34.9 µM
Anoctamin-1 (ANO1, Homo sapiens, UniProt Q5XXA6, del476-501/M544V) | inhibitor | 40 mV holding voltage | 87.8 µM
Anoctamin-1 (ANO1, Homo sapiens, UniProt Q5XXA6, del476-501/R541D) | inhibitor | R515D mutant at -20 mV | 134 µM
ANO1 del476-501/M544A | – | membrane voltage 100 mV | 99 µM
ANO1 del476-501/M544A | – | membrane voltage 40 mV | 80.7 µM
Anoctamin-1 (ANO1, Homo sapiens, UniProt Q5XXA6, del476-501/E650A) | – | membrane voltage -100 mV | 37.7 µM
Anoctamin-1 (ANO1, Homo sapiens, UniProt Q5XXA6, del476-501/F803A) | – | membrane voltage -40 mV | 37.8 µM
Anoctamin-1 (ANO1, Homo sapiens, UniProt Q5XXA6, del476-501/L548A) | – | membrane voltage -60 mV | 40.6 µM

Further values, each from its own experiment
Compound | target | assay | setting | measurement | value
COc1cccc(NC(=O)c2nc3scc(CN(C)Cc4ccccc4)c3c(=O)[nH]2)c1 | Sodium-dependent serotonin transporter (SLC6A4, Homo sapiens, UniProt P31645) | ligand displacement | 10 µM | inhibition | 84%

Repeated from above (block 1):
Compound | viability [%]
O=C(O)C1=C(CSc2nnnn2CS(=O)(=O)O)CS[C@@H]2[C@H](NC(=O)[C@H](O)c3ccccc3)C(=O)N12 | 106
Nc1cc(N2CCCCC2)nc(N)[n+]1[O-] | 112
CCN1CCN(Cc2ccc(Nc3ncc(F)c(-c4cc(F)c5nc(C)n(C(C)C)c5c4)n3)nc2)CC1 | 104
